Assay results pooled from the literature.
Each numbered part is a random draw from the data of one study; scales do not carry over between parts.

Sample 1 — technique: aptamer microarray, sandwich; form: DNA with 2'F-ANA; matrix: in vitro; concentration: 200 nM; added: Cy3 exosite-II aptamer, 400 nM; direction: higher = stronger binding; measurement: mean fluorescence intensity
Target: Prothrombin, mature alpha-thrombin (F2, Homo sapiens, UniProt P00734)
Setting: whole 15-mer aptamer, many near background
GGTTGGTGTGGTTGG (2'F-ANA at 3 6 9 10 15): 467 a.u.
GGTTGGTGTGGTTGG (2'F-ANA at 5 6 7 9 14 15): 44.5 a.u.
GGTTGGTGTGGTTGG (2'F-ANA at 2 5 7 10 11): 44.9 a.u.
GGTTGGTGTGGTTGG (2'F-ANA at 1 4 5 7 10 12 14 15): 49 a.u.

Sample 2 — technique: universal PBM; form: double-stranded DNA, one strand shown; matrix: in vitro; concentration: 600 nM; direction: higher = stronger binding; measurement: E-score
Target: Sal-like protein 4, full length isoform A (SALL4, Homo sapiens, UniProt Q9UJQ4, residues 1-1053)
UniProt Q9UJQ4, sequence (whole entry, looked up): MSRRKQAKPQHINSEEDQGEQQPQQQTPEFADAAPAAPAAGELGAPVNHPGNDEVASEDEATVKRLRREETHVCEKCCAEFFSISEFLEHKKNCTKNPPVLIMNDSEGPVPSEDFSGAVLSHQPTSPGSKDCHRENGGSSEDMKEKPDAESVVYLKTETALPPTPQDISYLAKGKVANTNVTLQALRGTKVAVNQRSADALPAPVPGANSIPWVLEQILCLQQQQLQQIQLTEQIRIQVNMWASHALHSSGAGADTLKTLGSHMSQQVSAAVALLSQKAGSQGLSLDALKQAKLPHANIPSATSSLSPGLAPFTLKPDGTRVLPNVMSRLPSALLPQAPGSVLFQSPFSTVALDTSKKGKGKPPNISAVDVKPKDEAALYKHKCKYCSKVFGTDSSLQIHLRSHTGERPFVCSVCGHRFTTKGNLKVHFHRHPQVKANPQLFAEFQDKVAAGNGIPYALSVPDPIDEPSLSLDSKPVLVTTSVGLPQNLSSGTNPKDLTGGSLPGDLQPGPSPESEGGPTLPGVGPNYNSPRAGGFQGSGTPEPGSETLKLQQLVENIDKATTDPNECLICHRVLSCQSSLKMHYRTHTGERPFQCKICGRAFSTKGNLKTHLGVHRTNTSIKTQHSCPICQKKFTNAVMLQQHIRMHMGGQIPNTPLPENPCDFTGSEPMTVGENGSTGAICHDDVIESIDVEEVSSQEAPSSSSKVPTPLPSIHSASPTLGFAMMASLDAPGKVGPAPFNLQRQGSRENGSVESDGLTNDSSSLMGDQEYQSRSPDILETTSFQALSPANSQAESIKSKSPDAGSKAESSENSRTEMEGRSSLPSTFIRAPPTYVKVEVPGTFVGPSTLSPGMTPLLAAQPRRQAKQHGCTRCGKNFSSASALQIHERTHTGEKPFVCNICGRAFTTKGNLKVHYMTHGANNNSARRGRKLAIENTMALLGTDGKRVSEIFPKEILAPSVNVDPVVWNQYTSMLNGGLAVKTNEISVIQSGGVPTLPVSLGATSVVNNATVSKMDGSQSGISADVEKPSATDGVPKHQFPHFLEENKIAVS
Setting: 8-mer, flanks averaged, mean of replicates
TCAAGGGA: -0.0678
GAGGTAGC: -0.286
AGTATATC: 0.2
TAGGGGCA: -0.113
CACTTTGC: 0.02

Sample 3 — technique: protein-binding microarray; form: double-stranded DNA, one strand shown; matrix: in vitro; concentration: 250 nM; setting: 60-bp whole probe; added: salmon DNA 0.4 mg/ml; baseline: random background probes; direction: higher = stronger binding; measurement: log fluorescence; constant ends, left off below: GCCTAGCAC … GTCTTGATTCGCTTGACGCTGCTG
Target: Interferon regulatory factor 5, full length, phosphomimetic (IRF5, Homo sapiens, UniProt Q13568-2, residues 1-514, K96S/S451D/S453D/S456D/S462D)
TCACTTTACTCACTCGGACTGTGCTAG: 0.356 z-score
AGAGATGTGGGACTCACCTAGTGCTAG: -0.464 z-score
TTAGGTCTCCTTTTCGTTTAGTGCTAG: 1.09 z-score
TAATTTCCATTTTCTAAATGCGTGCTA: 2.07 z-score
GACGGTTTCAACTATCGGGACGTGCTA: 2.49 z-score

Single results of other studies
PhoQ, residues 284 288 289 292 302 303 ALASRC
fold induction (PhoP, residues 12 14 15 18 19 SPWRL (Escherichia coli, UniProt P23836); Sort-seq, measured: YFP reporter; E. coli; PhoQ-PhoP variant library, added: 10 µM Mg2+; baseline: high Mg2+ state, higher = stronger signaling): 0.439
